Published values from different studies.
Each line is one published result; not all experiments were run side by side. Numbers after ± are the reported error.
CTSL: Procathepsin L (CTSL, Homo sapiens, UniProt P07711)
Chain of UniProt P07711 (whole entry, looked up): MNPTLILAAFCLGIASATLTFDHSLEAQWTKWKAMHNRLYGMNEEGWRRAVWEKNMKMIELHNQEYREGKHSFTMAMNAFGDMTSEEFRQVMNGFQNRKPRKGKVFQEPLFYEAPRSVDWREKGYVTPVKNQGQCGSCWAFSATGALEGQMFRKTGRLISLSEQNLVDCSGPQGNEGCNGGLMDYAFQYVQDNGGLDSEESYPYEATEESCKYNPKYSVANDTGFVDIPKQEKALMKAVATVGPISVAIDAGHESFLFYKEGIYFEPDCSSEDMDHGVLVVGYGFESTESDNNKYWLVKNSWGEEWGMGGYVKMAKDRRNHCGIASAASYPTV
Faah: Fatty-acid amide hydrolase 1 (Faah, Mus musculus, UniProt O08914)
Chain of UniProt O08914 (whole entry, looked up): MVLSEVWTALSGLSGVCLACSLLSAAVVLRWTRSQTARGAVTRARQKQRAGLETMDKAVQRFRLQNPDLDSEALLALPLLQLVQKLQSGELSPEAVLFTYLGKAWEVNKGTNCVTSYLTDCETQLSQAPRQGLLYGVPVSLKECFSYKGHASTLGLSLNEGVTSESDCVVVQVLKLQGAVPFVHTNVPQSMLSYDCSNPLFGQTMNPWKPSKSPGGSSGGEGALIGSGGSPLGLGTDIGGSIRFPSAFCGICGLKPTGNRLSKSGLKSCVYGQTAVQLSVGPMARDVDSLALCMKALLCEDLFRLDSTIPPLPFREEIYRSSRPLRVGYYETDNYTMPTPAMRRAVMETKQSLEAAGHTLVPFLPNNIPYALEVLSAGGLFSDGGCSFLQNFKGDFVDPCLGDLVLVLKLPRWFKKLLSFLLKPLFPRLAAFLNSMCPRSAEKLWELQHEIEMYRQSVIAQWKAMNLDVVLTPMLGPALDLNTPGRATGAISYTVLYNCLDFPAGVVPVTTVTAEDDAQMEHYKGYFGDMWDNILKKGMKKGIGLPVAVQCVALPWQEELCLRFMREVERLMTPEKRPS
HDAC1: Histone deacetylase 1 (HDAC1, Homo sapiens, UniProt Q13547)
Chain of UniProt Q13547 (whole entry, looked up): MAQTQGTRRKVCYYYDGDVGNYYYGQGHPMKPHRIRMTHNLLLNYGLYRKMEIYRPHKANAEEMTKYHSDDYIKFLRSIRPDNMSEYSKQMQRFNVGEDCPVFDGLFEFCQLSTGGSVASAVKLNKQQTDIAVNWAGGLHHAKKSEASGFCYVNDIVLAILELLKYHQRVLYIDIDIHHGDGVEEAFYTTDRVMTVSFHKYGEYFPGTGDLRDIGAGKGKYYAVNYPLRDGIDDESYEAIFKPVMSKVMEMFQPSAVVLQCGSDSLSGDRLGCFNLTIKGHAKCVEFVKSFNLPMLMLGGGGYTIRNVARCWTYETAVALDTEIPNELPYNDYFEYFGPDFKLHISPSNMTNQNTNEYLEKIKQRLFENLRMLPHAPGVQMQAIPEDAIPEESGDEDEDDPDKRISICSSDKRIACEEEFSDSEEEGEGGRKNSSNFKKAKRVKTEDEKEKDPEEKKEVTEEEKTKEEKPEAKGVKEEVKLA
SIRT6: NAD-dependent protein deacylase sirtuin-6 (SIRT6, Homo sapiens, UniProt Q8N6T7)
Chain of UniProt Q8N6T7 (whole entry, looked up): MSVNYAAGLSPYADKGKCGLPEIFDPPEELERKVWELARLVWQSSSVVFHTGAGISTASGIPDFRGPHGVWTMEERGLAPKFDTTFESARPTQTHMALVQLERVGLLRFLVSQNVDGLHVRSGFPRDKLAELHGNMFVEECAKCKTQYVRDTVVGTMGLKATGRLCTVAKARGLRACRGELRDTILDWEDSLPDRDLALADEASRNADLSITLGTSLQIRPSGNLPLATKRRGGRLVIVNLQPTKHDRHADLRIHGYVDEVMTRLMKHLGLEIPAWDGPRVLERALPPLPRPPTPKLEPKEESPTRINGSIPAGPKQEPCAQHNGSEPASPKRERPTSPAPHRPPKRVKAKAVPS
PTAFR: Platelet-activating factor receptor (PTAFR, Homo sapiens, UniProt P25105)
Chain of UniProt P25105 (whole entry, looked up): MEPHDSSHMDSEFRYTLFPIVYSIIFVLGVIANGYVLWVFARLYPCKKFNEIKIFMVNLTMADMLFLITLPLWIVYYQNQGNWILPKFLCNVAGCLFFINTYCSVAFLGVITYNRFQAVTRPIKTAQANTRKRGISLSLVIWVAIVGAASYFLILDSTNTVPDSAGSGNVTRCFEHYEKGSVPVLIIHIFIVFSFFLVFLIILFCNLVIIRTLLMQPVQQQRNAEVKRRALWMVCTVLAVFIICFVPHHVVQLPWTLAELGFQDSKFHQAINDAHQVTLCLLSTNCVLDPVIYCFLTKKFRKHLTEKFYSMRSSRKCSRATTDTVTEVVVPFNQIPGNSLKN
Chain of UniProt P51531 (whole entry, looked up): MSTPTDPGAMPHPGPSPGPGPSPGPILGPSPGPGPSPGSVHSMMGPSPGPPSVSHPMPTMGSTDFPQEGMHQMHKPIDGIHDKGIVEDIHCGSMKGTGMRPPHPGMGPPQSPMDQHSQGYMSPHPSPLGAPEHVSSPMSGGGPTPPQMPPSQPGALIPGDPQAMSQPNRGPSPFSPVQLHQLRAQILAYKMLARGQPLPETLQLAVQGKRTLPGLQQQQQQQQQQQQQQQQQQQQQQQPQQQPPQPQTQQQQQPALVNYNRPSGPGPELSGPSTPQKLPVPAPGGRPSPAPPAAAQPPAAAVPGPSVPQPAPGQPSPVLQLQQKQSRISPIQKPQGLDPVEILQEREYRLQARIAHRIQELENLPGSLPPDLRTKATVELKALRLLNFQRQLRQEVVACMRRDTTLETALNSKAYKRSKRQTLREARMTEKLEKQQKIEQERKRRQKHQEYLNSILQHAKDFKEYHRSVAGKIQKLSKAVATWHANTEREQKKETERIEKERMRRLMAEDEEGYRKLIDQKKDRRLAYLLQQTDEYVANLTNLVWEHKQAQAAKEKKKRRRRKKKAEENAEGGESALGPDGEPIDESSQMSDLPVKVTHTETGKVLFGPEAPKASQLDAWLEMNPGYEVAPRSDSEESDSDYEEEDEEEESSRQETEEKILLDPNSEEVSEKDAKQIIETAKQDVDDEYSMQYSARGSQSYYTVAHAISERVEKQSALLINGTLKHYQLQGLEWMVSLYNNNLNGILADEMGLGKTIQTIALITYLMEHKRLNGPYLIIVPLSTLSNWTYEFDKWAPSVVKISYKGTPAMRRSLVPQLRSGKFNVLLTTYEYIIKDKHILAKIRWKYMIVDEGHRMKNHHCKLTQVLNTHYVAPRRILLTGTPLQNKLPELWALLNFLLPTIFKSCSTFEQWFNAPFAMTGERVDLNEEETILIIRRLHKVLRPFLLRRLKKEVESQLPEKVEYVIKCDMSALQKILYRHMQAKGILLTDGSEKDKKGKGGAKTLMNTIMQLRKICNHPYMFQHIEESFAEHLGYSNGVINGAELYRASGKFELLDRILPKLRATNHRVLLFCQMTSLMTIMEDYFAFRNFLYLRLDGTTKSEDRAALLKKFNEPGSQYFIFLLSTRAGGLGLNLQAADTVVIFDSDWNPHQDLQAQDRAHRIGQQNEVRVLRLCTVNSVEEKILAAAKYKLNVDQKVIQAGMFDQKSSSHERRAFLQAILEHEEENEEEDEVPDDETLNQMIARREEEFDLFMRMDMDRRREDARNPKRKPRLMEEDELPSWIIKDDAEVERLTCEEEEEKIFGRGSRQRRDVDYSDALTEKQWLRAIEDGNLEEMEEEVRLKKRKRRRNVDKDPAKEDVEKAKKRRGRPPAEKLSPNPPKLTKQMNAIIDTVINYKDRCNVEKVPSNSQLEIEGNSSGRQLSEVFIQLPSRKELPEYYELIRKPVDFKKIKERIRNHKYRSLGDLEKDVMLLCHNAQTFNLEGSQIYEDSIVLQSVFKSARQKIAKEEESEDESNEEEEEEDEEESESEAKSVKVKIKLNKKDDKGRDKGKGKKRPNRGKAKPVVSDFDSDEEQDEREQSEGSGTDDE
Chain of UniProt Q9NQA5 (whole entry, looked up): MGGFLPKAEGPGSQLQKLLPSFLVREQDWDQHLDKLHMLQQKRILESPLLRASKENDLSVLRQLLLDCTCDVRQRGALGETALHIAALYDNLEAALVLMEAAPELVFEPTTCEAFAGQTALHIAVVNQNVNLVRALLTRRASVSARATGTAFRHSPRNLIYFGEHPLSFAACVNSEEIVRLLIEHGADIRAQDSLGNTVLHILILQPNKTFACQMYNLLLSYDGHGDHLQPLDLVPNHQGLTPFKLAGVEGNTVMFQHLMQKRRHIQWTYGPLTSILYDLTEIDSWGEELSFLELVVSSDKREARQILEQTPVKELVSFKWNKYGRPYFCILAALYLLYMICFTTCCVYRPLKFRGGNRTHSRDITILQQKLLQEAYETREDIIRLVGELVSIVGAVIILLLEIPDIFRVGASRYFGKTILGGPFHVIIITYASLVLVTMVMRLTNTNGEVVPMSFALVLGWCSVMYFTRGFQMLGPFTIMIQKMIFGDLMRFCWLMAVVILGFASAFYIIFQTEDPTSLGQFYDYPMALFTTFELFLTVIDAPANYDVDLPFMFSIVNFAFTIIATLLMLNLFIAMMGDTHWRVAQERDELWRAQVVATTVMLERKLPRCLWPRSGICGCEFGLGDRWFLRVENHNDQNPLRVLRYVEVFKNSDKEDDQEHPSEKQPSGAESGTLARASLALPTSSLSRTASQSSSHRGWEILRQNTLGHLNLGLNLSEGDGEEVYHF
Chain of UniProt P13504 (whole entry, looked up): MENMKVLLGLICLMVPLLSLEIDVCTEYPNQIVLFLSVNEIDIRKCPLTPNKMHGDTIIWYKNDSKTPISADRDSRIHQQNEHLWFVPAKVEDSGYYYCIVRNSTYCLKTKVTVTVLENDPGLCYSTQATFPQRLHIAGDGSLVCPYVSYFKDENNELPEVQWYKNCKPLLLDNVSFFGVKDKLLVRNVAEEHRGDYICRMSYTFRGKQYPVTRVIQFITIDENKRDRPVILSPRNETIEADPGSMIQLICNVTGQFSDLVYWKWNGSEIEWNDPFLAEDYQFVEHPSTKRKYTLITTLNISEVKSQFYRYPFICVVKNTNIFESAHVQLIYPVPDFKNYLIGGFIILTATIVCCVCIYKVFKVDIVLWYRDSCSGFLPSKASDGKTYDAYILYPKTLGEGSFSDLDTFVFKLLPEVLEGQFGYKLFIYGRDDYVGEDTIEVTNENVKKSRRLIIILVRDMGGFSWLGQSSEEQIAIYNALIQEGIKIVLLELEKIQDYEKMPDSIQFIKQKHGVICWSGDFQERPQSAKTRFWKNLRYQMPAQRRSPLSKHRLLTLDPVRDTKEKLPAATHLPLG

With `CN(C)C/C=C/C(=O)Nc1ccc2nc(NCCCCCN(C)C)nc(NCCCCCCN(C)C)c2c1` the inhibition was 76% (SUV39H1 (Homo sapiens, UniProt O43463); enzyme activity, inhibitor, radiometric; 50 µM).
`Cc1ccc(CNC(=O)[C@H](CCc2ccccc2)NC(=O)[C@H](CCc2ccccc2)NC(=O)Cc2cccc(Oc3ccccc3)c2)cc1` has an inhibition of 5% (CTSL; enzyme activity, inhibitor; 100 µM).
For `Cc1cccc(O[C@H]2CCC[C@@H](C(C)CNCc3ccncc3)C2)c1` (relative stereo), the inhibition was 0% (DYRK4 (Homo sapiens, UniProt Q9NR20); enzyme activity, inhibitor; 1 µM).
The inhibition of `Brc1ccccc1-c1nnc(CSc2nnnn2-c2ccccc2)o1` is reported as -7% (sigma receptor 2; radioligand binding; 10 µM).
With `CCN(CC)CCCC(C)NCc1nn2c(-c3ccccc3)nnc2s1` (centres unmarked) the inhibition was 98.2% (CREB-binding protein, bromodomain (CREBBP, Homo sapiens, UniProt Q92793); cell-free assay, inhibitor; 50 µM).
The inhibition of `C[Si]1(C[C@H](CN)CC(=O)O)CCCC1` is reported as -7% (GABA transporter, rat; binding, radioligand binding; 70 µM, with: [3H]GABA).
`O=C(N(c1ccccc1)c1ccccc1)n1ccnn1` gave an inhibition of less than 50% (Faah; serine hydrolase activity, inhibitor, competitive gel-based ABPP; mouse T-cell proteome; 1 µM, 30 min, 37 °C).
`Cc1c(COc2cc(OCc3cccc(C#N)c3)c(CNC(CO)CO)cc2Cl)cccc1-c1cccc(OCc2ccc(C(=O)NO)cc2)c1` has an inhibition of 15.5% (HDAC1; enzyme activity, inhibitor; 1 µM).
`O=C1c2sc(-c3ccc(N4CCC(F)C4)nc3F)nc2CCN1c1cccnc1` (centres unmarked) gave an inhibition of 15% (OPRD1 (Homo sapiens, UniProt P41143); ligand displacement, radioligand; 1 µM).
`COc1cc(-c2cn(C)c(=O)c3cnccc23)cc(OC)c1CN(C)C` gave an inhibition of -9.02% (SMARCA2 (Homo sapiens, UniProt P51531); 1 µM).
For `C[C@H](NC(=O)[C@H](CC(=O)NCC(C)(C)C)NC(=O)CCc1ccccc1)C(=O)NCc1ccccc1Cl`, the inhibition was 21% (CTSL; enzyme activity, inhibitor; 100 µM).
`Cc1c(COc2cc(OCc3cccc(C#N)c3)c(CNC(C)(CO)CO)cc2Cl)cccc1-c1cccc(OCc2ccc(/C=C/C(=O)NO)cc2)c1` gave an inhibition of 21.8% (HDAC1; enzyme activity, inhibitor; 1 µM).
The inhibition of `NC(=O)c1ccc(C(=O)NOCc2ccccc2)cc1` is reported as 80.5% (SIRT6; enzyme activity, inhibitor, fluorescence; 100 µM).
For `CCn1cc(C(=O)O)c(=O)c2c(N)c(F)c(NC3CCCCC3)cc21`, the inhibition was 8.5% (FAM20C (Homo sapiens, UniProt Q8IXL6); kinase activity; 0.1 µM, with: ATP at Km).
`Cn1cc(-c2ccc3ccccc3c2)c2ccc(Cl)nc21` gave an inhibition of 55.8% (Gag-Pol polyprotein, integrase (gag-pol, Human immunodeficiency virus type 1 group M subtype B, UniProt P04585); enzyme activity, inhibitor; 10 µM).
For `Cc1nc2c(F)cc(-c3nc(Nc4ccc(CNC(=O)CCCCCCC(=O)NO)cc4)ncc3F)cc2n1C(C)C`, the inhibition was 42% (CaMKIß(h) human kinase; enzyme activity; 1 µM).
For `CC(=O)NCCNCc1cc(Cl)c(OCc2cccc(-c3cccc(OCc4ccc(C(=O)NO)cc4)c3)c2C)cc1OCc1cccc(C#N)c1`, the inhibition was 15.8% (HDAC1; enzyme activity, inhibitor; 1 µM).
For `O=C(NO)c1cncc(OS(=O)(=O)Oc2ccccc2-c2ccccc2)c1`, the inhibition was 35% (HDAC1; enzyme activity, inhibitor, fluorescence; 10 µM).
The inhibition of `Cc1cc(C)nc(SCC(=O)Nc2ncc(Cc3cccc4ccccc34)s2)n1` is reported as less than 5% (SIRT6; enzyme activity, inhibitor; 10 µM, with: myristoylated substrate).
`C=CC[C@@H]1NC(=O)[C@H](CCSC)NC(=O)CCSCc2cccc(n2)CSCCNC(=O)[C@H](CCCCCC(=O)N(O)CCCCCC)NC1=O` has an inhibition of 55% (HDAC1; enzyme activity, inhibitor, fluorogenic; 30 µM).
`Cc1c(COc2cc(OCc3cccc(C#N)c3)c(CN3CCCC[C@@H]3C(=O)O)cc2Cl)cccc1-c1cccc(OCc2ccc(/C=C/C(=O)NO)cc2)c1` gave an inhibition of 27.4% (HDAC1; enzyme activity, inhibitor; 1 µM).
For `COc1cc(-n2cc3cc(F)cc(C(N)=O)c3n2)cc(Cl)c1C1CC(O)(CCO)Cc2ccccc21` (centres unmarked), the inhibition was 6.92% (PARP9 (Homo sapiens, UniProt Q8IXQ6); enzyme activity, inhibitor; 10 µM).
`O=C(O)CCNC(=S)NCCCC[C@H](NS(=O)(=O)c1cccc(F)c1)C(=O)N[C@@H](Cc1c[nH]c2ccccc12)C(=O)NC1CCC1` gave an inhibition of less than 0% (SIRT6; demyristoylase activity; 10 µM, with: myristoylated peptide substrate and NAD+ 500 µM).
`COc1ccc(S(=O)(=O)N2CCc3ccccc3C2)cc1N1CCN(C(=O)c2ccc(F)cc2C(F)(F)F)CC1` has an inhibition of 5.6% (HTR2C (Homo sapiens, UniProt P28335); binding, radioligand binding, antagonist site; 1 µM).
`CC[C@H](C)[C@@H]1NC(=O)[C@H](Cc2ccccc2)NC(=O)CCSCc2cccc(c2)CSCCNC(=O)[C@H](Cc2c[nH]cn2)NC(=O)[C@H](Cc2ccc(O)cc2)NC(=O)[C@H](CC(=O)O)NC(=O)[C@H](Cc2ccc(F)cc2)NC(=O)[C@H](CC(C)C)NC(=O)[C@H](CCCCN)NC1=O` has an inhibition of greater than 50% (Melanoma-associated antigen 4, MHD; with RAD18 (Homo sapiens, UniProt P43358); protein-protein interaction, NanoBRET; HEK293; 20 µM).
`CNC(=O)C[C@H](Cc1ccc(C#N)cc1)NC(=O)c1cc(-c2ccc(CN[C@H](C)c3ccc(C)cc3)o2)ccc1Cl` has an inhibition of 4% (SSTR4 (Homo sapiens, UniProt P31391); calcium signal, antagonist; 10 µM).
The inhibition of `COCC(=O)N1CCc2cc(-c3csc(NC(=O)c4cc(OC)cc(OC)c4)n3)ccc21` is reported as -10% (Interleukin-1 receptor type 1 (Il1r1, Mus musculus, UniProt P13504); binding, radioligand binding; mouse; 10 µM).
For `CO[C@@H](C)c1c(NC(=O)Nc2cnc(-n3nccn3)c(C(F)(F)F)c2)cnc2sc(C)nc12`, the inhibition was 2.7% (MC4R (Homo sapiens, UniProt P32245); ligand displacement, radioligand; 10 µM).
The inhibition of `CCn1cc(-c2cccc(C(F)(F)F)c2)c2sc(C(=N)NC3CCS(=O)(=O)CC3)cc2c1=O` is reported as -5.08% (SWI/SNF-related matrix-associated actin-dependent regulator of chromatin subfamily A member 2, isoform B (SMARCA2, Homo sapiens, UniProt P51531); 1 µM).
The inhibition of `C/C=C/C(=O)Nc1ccc2nc(NCCCCCN(C)C)nc(NCCCCCCN(C)C)c2c1` is reported as 69% (PRMT7 (Homo sapiens, UniProt Q9NVM4); enzyme activity, inhibitor, radiometric; 50 µM).
With `C[Si](C)(C)C[C@@H](CN)CC(=O)O` the inhibition was 0% (NMBR (Homo sapiens, UniProt P28336); cell-free assay, inhibitor; 75 µM).
With `C/C1=C\CC/C(C)=C/CC(C)(C)/C=C/C1` the inhibition was 11 ± 7% (TRPV5 (Homo sapiens, UniProt Q9NQA5); ion current, inhibitor, outside-out patch clamp; 100 µM, 5 min).
With `CC(C)C[C@H](NC(=O)CNC(=O)[C@H](C)NC(=O)[C@H](C)NC(=O)[C@H](C)NC(=O)CNC(=O)CCCCNC(=O)CCCCNC(=O)CCCCNC(=O)[C@H](CCCCN)NC(=O)[C@H](Cc1ccc(O)cc1)NC(=O)[C@@H](N)Cc1c[nH]c2ccccc12)C(=O)N[C@@H](CC(C)C)C(=O)N[C@@H](CO)C(N)=O` the inhibition was 13% (NPBWR1 (Homo sapiens, UniProt P48145); calcium signal, antagonist; 10 µM).
`O=C1c2sc(-c3ccc(N4CCC(CO)CC4)nc3F)nc2CCN1c1cccnc1` gave an inhibition of -19% (PTAFR; ligand displacement, radioligand; 1 µM).
With `CCN(CC)C(=O)n1ccnn1` the inhibition was greater than 95% (Faah; serine hydrolase activity, inhibitor, competitive gel-based ABPP; mouse T-cell proteome; 1 µM, 30 min, 37 °C).
`COc1ccc(C#CC2=C[C@H]3C[C@@]4(OC(=O)C=C24)[C@H]2CC[C@H](C(OC)OC)N32)cc1` has an inhibition of 1% (Neuronal acetylcholine receptor; alpha4/beta2 (Homo sapiens, UniProt P17787+P43681); ligand displacement, radioligand; 10 µM).
For `CC(=O)NCCNCc1cc(Cl)c(OCc2cccc(-c3cccc(OCCCCCC(=O)NO)c3)c2C)cc1OCc1cccc(C#N)c1`, the inhibition was 68.7% (HDAC1; enzyme activity, inhibitor; 1 µM).
For `Cc1[nH]nc2c1N=C(c1ccccc1Cl)c1cnc(N3CCOCC3)cc1N2`, the inhibition was 6% (PTAFR; cell-free assay; 10 µM).
`Cc1ccc(CNC(=O)C(CCc2ccccc2)NC(=O)C(NC(=O)c2ccc(OCc3ccc(C(C)(C)C)cc3)cc2)C(C)O)cc1` (centres unmarked) has an inhibition of 4% (CTSL; enzyme activity, inhibitor; 100 µM).
`O=C(/C=C/c1cccc(OS(=O)(=O)Oc2ccc(Br)cc2)c1)NO` has an inhibition of 29% (HDAC5 (Homo sapiens, UniProt Q9UQL6); enzyme activity, inhibitor, fluorescence; 10 µM).
For `CN(Cc1ccc(/C=C/C(=O)NO)cc1)CC12CC3CC(CC(C3)C1)C2`, the inhibition was -4% (human NK2 receptor; agonist radioligand binding; 0.05 µM).

Repeated from above:
For `CO[C@@H](C)c1c(NC(=O)Nc2cnc(-n3nccn3)c(C(F)(F)F)c2)cnc2sc(C)nc12`, the inhibition was 2.7% (MC4R (Homo sapiens, UniProt P32245); ligand displacement, radioligand; 10 µM).
The inhibition of `CCn1cc(-c2cccc(C(F)(F)F)c2)c2sc(C(=N)NC3CCS(=O)(=O)CC3)cc2c1=O` is reported as -5.08% (SWI/SNF-related matrix-associated actin-dependent regulator of chromatin subfamily A member 2, isoform B (SMARCA2, Homo sapiens, UniProt P51531); 1 µM).
The inhibition of `C/C=C/C(=O)Nc1ccc2nc(NCCCCCN(C)C)nc(NCCCCCCN(C)C)c2c1` is reported as 69% (PRMT7 (Homo sapiens, UniProt Q9NVM4); enzyme activity, inhibitor, radiometric; 50 µM).
With `C[Si](C)(C)C[C@@H](CN)CC(=O)O` the inhibition was 0% (NMBR (Homo sapiens, UniProt P28336); cell-free assay, inhibitor; 75 µM).
With `C/C1=C\CC/C(C)=C/CC(C)(C)/C=C/C1` the inhibition was 11 ± 7% (TRPV5 (Homo sapiens, UniProt Q9NQA5); ion current, inhibitor, outside-out patch clamp; 100 µM, 5 min).
With `CC(C)C[C@H](NC(=O)CNC(=O)[C@H](C)NC(=O)[C@H](C)NC(=O)[C@H](C)NC(=O)CNC(=O)CCCCNC(=O)CCCCNC(=O)CCCCNC(=O)[C@H](CCCCN)NC(=O)[C@H](Cc1ccc(O)cc1)NC(=O)[C@@H](N)Cc1c[nH]c2ccccc12)C(=O)N[C@@H](CC(C)C)C(=O)N[C@@H](CO)C(N)=O` the inhibition was 13% (NPBWR1 (Homo sapiens, UniProt P48145); calcium signal, antagonist; 10 µM).
